{"data": "Experimental data from different studies", "note": "Parts stem from different laboratories: compare values within a part only. Substitutions count along the parent as printed."}
{"data": "Sample 1", "target": "tungstate, free oxyanion", "technique": "microfluidic competitive inhibition", "matrix": "in vitro, cell-free expressed", "tested at": "not given", "notes": "derived from inhibition constants, unchanged parent 2230 nM", "reading": "lower = stronger binding", "starting sequence": "PafA, mature enzyme, eGFP fusion (Elizabethkingia meningoseptica, UniProt Q9KJX5); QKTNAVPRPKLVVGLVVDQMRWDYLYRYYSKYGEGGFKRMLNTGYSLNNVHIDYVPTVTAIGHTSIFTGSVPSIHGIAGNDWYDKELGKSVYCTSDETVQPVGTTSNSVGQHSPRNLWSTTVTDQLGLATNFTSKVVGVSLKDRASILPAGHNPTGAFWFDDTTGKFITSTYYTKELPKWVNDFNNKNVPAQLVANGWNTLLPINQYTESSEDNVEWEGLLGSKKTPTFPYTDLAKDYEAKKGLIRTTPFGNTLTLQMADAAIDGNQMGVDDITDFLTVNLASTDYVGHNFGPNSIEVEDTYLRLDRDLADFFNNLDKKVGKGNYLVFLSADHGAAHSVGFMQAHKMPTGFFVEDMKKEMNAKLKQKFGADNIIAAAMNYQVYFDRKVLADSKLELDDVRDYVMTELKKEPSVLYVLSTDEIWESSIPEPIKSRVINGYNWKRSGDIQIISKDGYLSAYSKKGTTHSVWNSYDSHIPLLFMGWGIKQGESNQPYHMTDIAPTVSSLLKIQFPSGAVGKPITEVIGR"}
{"Change": "N372V", "oxyanion analog dissociation constant": "3000 nM"}
{"Change": "H289G", "oxyanion analog dissociation constant": "11100 nM"}
{"Change": "L148V", "oxyanion analog dissociation constant": "2000 nM"}
{"Change": "G517A", "oxyanion analog dissociation constant": "1150 nM"}
{"Change": "L417G", "oxyanion analog dissociation constant": "2530 nM"}
{"Change": "S119G", "oxyanion analog dissociation constant": "1510 nM"}
{"Change": "V12A", "oxyanion analog dissociation constant": "2330 nM"}
{"Change": "K409V", "oxyanion analog dissociation constant": "2120 nM"}
{"data": "Sample 2", "target": "CCND3, cyclin fold, Cln2 fusion (human)", "technique": "yeast growth competition, sequencing", "matrix": "yeast", "notes": "weak parent motif", "relative to": "not given", "reading": "higher = stronger binding", "starting sequence": "viral docking peptide; TSVRRALFTGGSD"}
{"Change": "L7H", "normalised enrichment score": -0.0621}
{"Change": "L7E", "normalised enrichment score": 0.133}
{"Change": "T9H", "normalised enrichment score": 0.266}
{"Change": "R4P", "normalised enrichment score": 0.0318}
{"Change": "G11E", "normalised enrichment score": -0.285}
{"Change": "S12R", "normalised enrichment score": 0.417}
{"Change": "S12W", "normalised enrichment score": -0.0359}
{"Change": "F8A", "normalised enrichment score": 0.109}
{"data": "Sample 3", "effect on": "Ni-NTA bead binding", "technique": "phage display NGS", "molecule type": "peptide", "matrix": "phage-displayed 11-mer library", "tested at": "concentration not given", "together with": "Ni-NTA beads", "relative to": "input library"}
{"Molecule": "TAPFYPPAYFI", "enrichment fold change": 2}
{"Molecule": "TAPFYPPAYAI", "enrichment fold change": 1.91}
{"Molecule": "TAPFYPPAYDI", "enrichment fold change": 1.04}
{"data": "Mixed results"}
{"SMILES": "C[C@H](N)[C@H](O)c1ccc(O)c(O)c1", "organism": "Plasmodium berghei", "assay": "inhibitor", "test system": "Huh-7, liver stage", "conditions": "10 µM, 24 h", "scale": "relative to: untreated control", "measurement": "infection rate", "value": "97.3%"}
{"note": "Repeated from above (sample 1):"}
{"Change": "L417G", "oxyanion analog dissociation constant": "2530 nM"}
{"Change": "G517A", "oxyanion analog dissociation constant": "1150 nM"}
